# Measured values of several laboratories.
# Protocols differ between the studies behind these lines. Several values in a cell are separate wells, animals, samples, runs or records. Numbers after ± are the reported error.
Substance,target or system,assay,test system,conditions,scale,endpoint,result
Met-enkephalin,,LC-MS3,rat dialysate with 5% acetic acid,-80 °C,,storage stability time,~5 days
NLVPMVATA,HLA-A2 complex with compound,nanoDSF,peptide,"pH 7.6, 2 µM complex",,Tm,48.2 ± 0.1 °C
heparin sodium,,,healthy Chinese adult volunteers,"continuous intravenous infusion, 8 IU/kg/h, 5 days",,subjects with AEs leading to death,0%
aspterric acid,Arabidopsis thaliana,,2-week-old plants,"foliar spray, 200 µg/mL, 20 days, postemergence",,aboveground fresh weight,393 mg
Polymyxin B,,,"mouse, urine",20 mg/kg,,cystatin C level,31.7 ng/mL
glucagon,,isotope dilution,"human, non-diabetic","intravenous infusion, 0.05 ng/kg/min, 100 to 120 min",,splanchnic extraction,25.8 ± 3.7%
HVLVMSATRR,,,"peptide, C57BL/6J mice, male, serum","subcutaneous osmotic pump, 3 mg/kg/day peptide basis, 8 weeks",,total bilirubin,0.1 mg/dL and 0.3 mg/dL
mastoparan,Swiss 3T3 quiescent,,,,,lowest cytotoxic concentration,25 to 30 µM
nonaarginine,PorA peptide pore,"peptide binding, planar bilayer single-channel recording",,"pH 7.4, +30 mV, trans side, 150 mM KCl",,Kd,4.53 ± 0.5 µM
DPDPE,,RP-HPLC,HALO Peptide ES-C18 column,"25 µM, acetic acid/methanol, 10 min gradient",,retention time,7.95 min
insulin human,,item: GFPT1,"mouse, uninfected, brain","ip, dose not given, added: insulin",relative to: PBS-treated,mRNA fold change,1.1
calpain inhibitor III,Vero E6,cell viability,,,,CC50,> 2.5 µM
QAKTFLDKFNHEAEDLFYQ,,circular dichroism,"peptide, water/TFE 1:1 v/v","200 µM, 25 °C",,alpha-helix content,63.3%
"Ac-LRKLRKRLLRDWLKAFYDKVAEKLKEAF-NH2 (N-acetyl, C-amide)",THP-1 derived macrophages,,peptide,"2 h pulse, 360 min chase, heparin wash",,cell-associated peptide,61 ± 1.2%
capreomycin sulfate,,,"guinea pig, serum","insufflation, dose not given, dry powder combination single dose",,AUC(0-inf),5080 ng·h/mL

# Excerpt of the above:
Substance,target or system,assay,test system,conditions,scale,endpoint,result
Polymyxin B,,,"mouse, urine",20 mg/kg,,cystatin C level,31.7 ng/mL
